Published values pooled from the literature.
A part holds a random share of what one study measured.
Sequence of UniProt Q9HC98 (whole entry, looked up): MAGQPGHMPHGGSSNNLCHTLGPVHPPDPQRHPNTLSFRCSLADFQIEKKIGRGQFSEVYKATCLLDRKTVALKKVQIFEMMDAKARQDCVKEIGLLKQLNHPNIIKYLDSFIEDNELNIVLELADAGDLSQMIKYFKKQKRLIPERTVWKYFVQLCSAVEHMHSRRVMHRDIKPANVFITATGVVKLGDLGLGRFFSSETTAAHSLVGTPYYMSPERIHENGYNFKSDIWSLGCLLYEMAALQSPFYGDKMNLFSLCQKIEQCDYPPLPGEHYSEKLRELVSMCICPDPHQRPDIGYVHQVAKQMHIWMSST
Sequence of UniProt Q08881 (whole entry, looked up): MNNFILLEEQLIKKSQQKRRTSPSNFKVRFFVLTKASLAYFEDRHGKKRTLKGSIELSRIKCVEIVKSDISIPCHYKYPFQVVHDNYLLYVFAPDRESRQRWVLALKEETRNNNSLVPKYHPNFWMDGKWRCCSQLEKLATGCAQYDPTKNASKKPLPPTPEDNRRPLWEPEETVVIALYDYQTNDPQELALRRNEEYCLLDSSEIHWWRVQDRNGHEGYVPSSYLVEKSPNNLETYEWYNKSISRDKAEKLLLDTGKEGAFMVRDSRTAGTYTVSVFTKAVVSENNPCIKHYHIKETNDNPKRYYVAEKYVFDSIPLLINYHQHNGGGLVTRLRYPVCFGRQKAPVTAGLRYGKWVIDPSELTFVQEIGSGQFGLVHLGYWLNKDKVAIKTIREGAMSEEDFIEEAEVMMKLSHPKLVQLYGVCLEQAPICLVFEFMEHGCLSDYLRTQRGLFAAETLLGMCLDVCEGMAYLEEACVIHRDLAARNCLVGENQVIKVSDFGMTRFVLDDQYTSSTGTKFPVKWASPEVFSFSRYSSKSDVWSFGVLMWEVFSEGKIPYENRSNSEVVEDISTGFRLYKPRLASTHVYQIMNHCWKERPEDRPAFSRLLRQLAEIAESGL

Series 1
Target: Cyclic AMP-responsive element-binding protein 1 (CREB1, Homo sapiens, UniProt P16220, residues 1-327, full length assumed)
Sequence of UniProt P16220 (whole entry, looked up): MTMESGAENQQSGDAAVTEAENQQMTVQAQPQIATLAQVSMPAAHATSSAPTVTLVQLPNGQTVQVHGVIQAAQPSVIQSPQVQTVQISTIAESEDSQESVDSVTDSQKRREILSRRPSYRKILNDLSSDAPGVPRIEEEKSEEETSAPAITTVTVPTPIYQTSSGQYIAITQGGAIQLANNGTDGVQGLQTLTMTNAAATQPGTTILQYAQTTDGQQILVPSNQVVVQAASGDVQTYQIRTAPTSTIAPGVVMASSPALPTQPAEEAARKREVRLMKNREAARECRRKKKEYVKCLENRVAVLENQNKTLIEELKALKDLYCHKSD
Technique: protein-binding microarray
Form: double-stranded DNA, one strand shown
Sample: in vitro
Concentration: not given
Setting: k-mer, scored over probes, only values ≥0.25
Reading: higher = stronger binding
Strand | E-score
ACGCGTC | 0.318
GATGTCA | 0.316
ACGTGAG | 0.254
AGCGTCA | 0.426
GTCATTA | 0.27
ATCATAC | 0.292
GACGCAA | 0.316
TACGTAA | 0.469

Series 2
Target: Histone acetyltransferase KAT6A, winged helix 1, GST fusion (KAT6A, Homo sapiens, UniProt Q92794, residues 1-85)
Technique: protein binding microarray
Form: double-stranded DNA, one strand shown
Sample: in vitro
Concentration: not given
Setting: 8-mer, flanks averaged, mean of 2 arrays, mostly near background
Baseline: not given
Reading: higher = stronger binding
Construct (chain): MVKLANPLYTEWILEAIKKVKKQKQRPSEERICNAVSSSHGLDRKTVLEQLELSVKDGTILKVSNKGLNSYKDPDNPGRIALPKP
Strand | E-score
CCAACGTA | -0.185
AAGTGGCA | -0.225
CACCTCCA | -0.191
CAACCTTG | -0.000535
CAGCCTAG | -0.157
ACAGGTCT | -0.105
AGCCGTCC | 0.34
CTGATCAG | -0.17

Single results of other studies
SMILES | target | test | setting | scale | quantity | result
C[C@@H](N)[C@H]1CC[C@H](C(=O)Nc2ccncc2)CC1 | Tyrosine-protein kinase ITK/TSK (ITK, Homo sapiens, UniProt Q08881) | enzyme activity, inhibitor | 0.5 µM | baseline: control | remaining activity | 95.8%
C[C@@]1(Cc2ccc(C#N)cc2)C(=O)N(c2cc(Cl)cc(Cl)c2)c2ncc(C(=O)NC3(c4nc(C5CCC5)no4)CC3)n21 | Serine/threonine-protein kinase Nek6 (NEK6, Homo sapiens, UniProt Q9HC98) | cell-free assay, competition with immobilised ligand | 1 µM | – | remaining binding | 100%

Excerpt of the above (single results of other studies):
SMILES | target | test | setting | scale | quantity | result
C[C@@H](N)[C@H]1CC[C@H](C(=O)Nc2ccncc2)CC1 | Tyrosine-protein kinase ITK/TSK (ITK, Homo sapiens, UniProt Q08881) | enzyme activity, inhibitor | 0.5 µM | baseline: control | remaining activity | 95.8%
C[C@@]1(Cc2ccc(C#N)cc2)C(=O)N(c2cc(Cl)cc(Cl)c2)c2ncc(C(=O)NC3(c4nc(C5CCC5)no4)CC3)n21 | Serine/threonine-protein kinase Nek6 (NEK6, Homo sapiens, UniProt Q9HC98) | cell-free assay, competition with immobilised ligand | 1 µM | – | remaining binding | 100%
